# Published values gathered from unrelated publications.
# A part holds a random share of what one study measured.
# UniProt P49459, sequence (whole entry, looked up): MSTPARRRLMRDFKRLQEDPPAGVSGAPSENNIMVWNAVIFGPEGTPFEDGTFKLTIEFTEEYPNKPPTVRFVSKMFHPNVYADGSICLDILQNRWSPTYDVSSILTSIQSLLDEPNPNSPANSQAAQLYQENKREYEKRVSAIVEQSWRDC
# UniProt Q9ZSY8, sequence (whole entry, looked up): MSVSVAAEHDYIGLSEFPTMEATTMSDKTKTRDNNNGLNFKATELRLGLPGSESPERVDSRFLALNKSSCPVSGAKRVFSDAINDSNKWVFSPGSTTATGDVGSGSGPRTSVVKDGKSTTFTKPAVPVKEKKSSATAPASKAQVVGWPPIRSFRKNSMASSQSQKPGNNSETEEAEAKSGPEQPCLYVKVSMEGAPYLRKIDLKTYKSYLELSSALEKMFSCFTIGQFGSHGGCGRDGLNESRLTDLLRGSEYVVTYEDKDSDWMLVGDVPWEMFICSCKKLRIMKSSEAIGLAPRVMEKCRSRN
# UniProt O24409, sequence (whole entry, looked up): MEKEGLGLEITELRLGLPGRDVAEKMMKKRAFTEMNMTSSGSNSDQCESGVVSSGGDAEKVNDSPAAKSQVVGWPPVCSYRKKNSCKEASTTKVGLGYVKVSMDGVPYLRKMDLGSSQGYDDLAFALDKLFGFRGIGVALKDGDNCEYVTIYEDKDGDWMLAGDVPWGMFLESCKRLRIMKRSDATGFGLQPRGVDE
# UniProt O24410, sequence (whole entry, looked up): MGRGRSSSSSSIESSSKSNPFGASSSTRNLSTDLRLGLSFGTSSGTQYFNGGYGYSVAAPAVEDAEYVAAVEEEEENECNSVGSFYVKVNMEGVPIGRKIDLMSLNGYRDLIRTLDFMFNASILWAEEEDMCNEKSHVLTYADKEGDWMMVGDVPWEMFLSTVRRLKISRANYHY
# UniProt Q93WC4, sequence (whole entry, looked up): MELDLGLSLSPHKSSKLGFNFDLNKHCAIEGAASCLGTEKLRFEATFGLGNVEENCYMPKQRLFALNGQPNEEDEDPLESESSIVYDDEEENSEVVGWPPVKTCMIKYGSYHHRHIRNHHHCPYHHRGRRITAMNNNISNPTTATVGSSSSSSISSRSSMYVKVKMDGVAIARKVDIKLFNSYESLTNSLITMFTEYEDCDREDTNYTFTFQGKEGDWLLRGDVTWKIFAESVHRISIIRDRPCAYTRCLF

# Series 1
# Molecule: B1 (IAA18)
# Method: two-hybrid
# Baseline: out of 4 tests
# Reading: higher = firmer interaction
# B1: IAA18 (Arabidopsis thaliana, UniProt O24408); chain MEGYSRNGEISPKLLDLMIPQERRNWFHDEKNSVFKTEEKKLELKLGPPGEEDDDESMIRHMKKEPKDKSILSLAGKYFSPSSTKTTSHKRTAPGPVVGWPPVRSFRKNLASGSSSKLGNDSTTSNGVTLKNQKCDAAAKTTEPKRQGGMFVKINMYGVPIGRKVDLSAHNSYEQLSFTVDKLFRGLLAAQRDFPSSIEDEKPITGLLDGNGEYTLTYEDNEGDKMLVGDVPWQMFVSSVKRLRVIKTSEISSALTYGNGKQEKMRR
partner,setting,positive tests
"IAA20 (Arabidopsis thaliana, UniProt O24410)",weak activation fusion,2
"IAA29 (Arabidopsis thaliana, UniProt Q93WC4)",,0
"IAA19 (Arabidopsis thaliana, UniProt O24409)",,1
"IAA27 (Arabidopsis thaliana, UniProt Q9ZSY8)",,2

# Series 2
# Target: Fragile X messenger ribonucleoprotein 1, C-terminal low-complexity region (Fmr1, Mus musculus, UniProt P35922)
# Method: RNA Bind-n-Seq
# Molecule type: RNA
# Medium: in vitro
# Tested at: 200 nM
# Setting: whole 134-nt RNA, ends assumed
# Together with: 150 mM KCl
# Baseline: input library
# Reading: higher = stronger binding
# Shared flanks, not repeated: GGGAGUUCUACAGUCCGACGAUC … UGGAAUUCUCGGGUGUCAAGG
Strand,log2 enrichment
ACCAUGCAGGUGGGCAUCUUUGGGAAGUGGGGCAAGGGGGGGAUAGGGAGGGGGGUAACACUUUGGGAACAGGUGGUCCCAGGUCGUAUC,0.652
UUCAUUCCCAAGGGAGGCCAUGUCUGGAGAUAGACCUUGAAUUUAAUAAAUUUUAGGCACUAUACCAUUUCAGUGGAGAAAAUUGUUGGG,-1.78
UCCUGUGCUACACAUCGUAUGUACCGAAUCGGGGUUUGGGGUUUUUGGGGUUUUUGGGGAAAGUAUUAUGUUACGCCGUUCGGAUCUGCA,0.956
UCCUGUGCUACACAUCGUAUGUACCGAAUCGGGUUUUUUUGGGAAAGGGAAAAAAAGGGAAAGUAUUAUGUUACGCCGUUCGGAUCUGCA,-0.137
UGUGCUACACAUCGUAUGUACCGAAUCGGGCCCCCCCGGGCCCCCCCGGGGCCCCCCCGGGGAAAGUAUUAUGUUACGCCGUUCGGAUCU,-1.54
UCCUGUGCUACACAUCGUAUGUACCGAAUCGGUUUUUUUGGAAAAAAAGGAAAAAAAGGAAAGUAUUAUGUUACGCCGUUCGGAUCUGCA,-0.648
UGGCCCUGGUGGCAUGCGGGGAGGAAGAGGUGGCCUCAUGGAUCGUGGUGGUCACGGUGGAAUGUUCAGAGGUGGCCGUGGUGGAGACAG,-0.231
UCAAGUCCUGUGCUACACAUCGUAUGUACCGAAUCGGUGGAAAAAAAGGAAAGGAAAGUAUUAUGUUACGCCGUUCGGAUCUGCACUUCC,-0.54

# Series 3
# Target: Prothrombin, mature alpha-thrombin (F2, Homo sapiens, UniProt P00734)
# Method: aptamer microarray, sandwich
# Molecule type: DNA with 2'F-ANA
# Medium: in vitro
# Tested at: 200 nM
# Setting: whole 15-mer aptamer, many near background
# Together with: Cy3 exosite-II aptamer, 400 nM
# Reading: higher = stronger binding
# Strand: GGTTGGTGTGGTTGG
Modification,mean fluorescence intensity [a.u.]
2'F-ANA at 1 2 5 7 10 13,44.2
2'F-ANA at 6 8 10,160
2'F-ANA at 2 3 4 5 7 8 9 10 15,55.3
2'F-ANA at 1 6 10 11 15,65.3
2'F-ANA at 3 8 9 12 14 15,718
2'F-ANA at 1 3 7 10 11 13,94.5
2'F-ANA at 1 2 4 5 9 12 13 15,67.6
2'F-ANA at 3 5 8 11 12 13,207

# Mixed results
Molecule,target,test,system,setting,how to read,endpoint,result
FDPPLESKYECPICLMALREAVQTPCGHRFCKACIIKSIRDAGHKCPVDNEILLENQLFP (TRAF6 RING domain (UniProt Q9Y4K3)),UBE2A UBC core domain (UniProt P49459),yeast two-hybrid,yeast,mostly zero background,"baseline: not given, higher = stronger interaction",lacZ reporter activity,0

# For quick reference, copied from above (series 1):
partner,setting,positive tests
"IAA20 (Arabidopsis thaliana, UniProt O24410)",weak activation fusion,2
"IAA19 (Arabidopsis thaliana, UniProt O24409)",,1
